Published values pooled from the literature.
Every numbered part comes from another study and shows a few of its results, in no order. Substitutions count along the parent as printed.

Sample 1
Target: CCNA2, cyclin fold, Cln2 fusion (human)
Technique: yeast growth competition, sequencing
Medium: yeast
Notes: strong parent motif
Relative to: not given
Direction: higher = stronger binding
Quantity: normalised enrichment score
Starting sequence: PKMYT1 docking peptide (human); SFEPRNLLSLFED
SFERRNLLSLFED [P4R]: 0.834
SFEPRNLGSLFED [L8G]: 0.364
SFEPRNLLSLDED [F11D]: -1.41
SFEPRDLLSLFED [N6D]: -0.0807
SGEPRNLLSLFED [F2G]: 0.392
SFEPENLLSLFED [R5E]: -0.113
SFEPRNLLSLFEV [D13V]: 2.26
SFEPRKLLSLFED [N6K]: 1.25
WFEPRNLLSLFED [S1W]: 3.64
TFEPRNLLSLFED [S1T]: 2.16
SFEPRNLWSLFED [L8W]: -0.398
SFEPRNLLSLFKD [E12K]: 2.32
SFEPRNLLSCFED [L10C]: 1.68
SFEPRNLLGLFED [S9G]: 1.66
SFEPRNLLSLFCD [E12C]: 2.23
SFEPRILLSLFED [N6I]: 0.336
SFEPRNLLSLFEA [D13A]: 2.98
SFEPRNLLSLFMD [E12M]: 1.47
SFEPRNLQSLFED [L8Q]: 1.03
SFEPRNLLSLFEK [D13K]: 3.26
SFEPRNYLSLFED [L7Y]: -1.08
SFEPRNLLSLFES [D13S]: 3.04

Sample 2
Target: Interferon regulatory factor 3, full length, phosphomimetic (IRF3, Homo sapiens, UniProt Q14653, residues 1-427, S386D/S396D/S398D/S402D/T404D/S405D)
Chain of UniProt Q14653 (whole entry, unmodified, looked up): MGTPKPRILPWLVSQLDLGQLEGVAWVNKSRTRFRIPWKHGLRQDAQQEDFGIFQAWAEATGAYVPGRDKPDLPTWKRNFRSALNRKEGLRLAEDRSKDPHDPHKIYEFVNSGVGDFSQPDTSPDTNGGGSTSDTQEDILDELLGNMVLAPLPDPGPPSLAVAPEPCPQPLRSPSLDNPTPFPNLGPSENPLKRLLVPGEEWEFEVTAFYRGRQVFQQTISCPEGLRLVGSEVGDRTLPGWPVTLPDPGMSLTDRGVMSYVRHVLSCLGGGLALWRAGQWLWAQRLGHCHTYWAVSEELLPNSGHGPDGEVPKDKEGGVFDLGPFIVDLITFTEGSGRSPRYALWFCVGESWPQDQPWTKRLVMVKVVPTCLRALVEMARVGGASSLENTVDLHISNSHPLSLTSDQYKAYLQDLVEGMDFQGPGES
Technique: protein-binding microarray
Form: double-stranded DNA, one strand shown
Medium: in vitro
Tested at: 2540 nM top
Notes: 60-bp whole probe
Together with: salmon DNA 0.4 mg/ml
Relative to: random background probes
Direction: higher = stronger binding
Quantity: fitted relative affinity
All sequences stand within: GCCTAGCAC … GTCTTGATTCGCTTGACGCTGCTG
TTAGGACTGGAGACTGGGTTAGTGCTA: -0.908 z-score
TTATGTATCGACTTTCGGTTAGTGCTA: 2.21 z-score
TTAGGTTTCGGTCTCCGTTAGTGCTAG: 8.57 z-score
GACGGAGTGCTACTGCTGACGTGCTAG: -0.913 z-score
TTAGGTGTCCTTATCCTTTAGTGCTAG: 3.25 z-score
GCCATTGTGGGTCTTGCAGAGTGCTAG: -0.71 z-score
GACGGACTGGGGGATCGGGACGTGCTA: -0.561 z-score
GACGGTCTCCTTTTCCTAACGTGCTAG: 5.35 z-score
GACGGTCTGCTTCTCCTGACGTGCTAG: 0.0423 z-score
GACGGACTGGACAATCGGGACGTGCTA: -0.455 z-score
TTAGGACTGCGGTTTCGGTTAGTGCTA: 3.71 z-score
GTGACTCTGAACCTTGGGCTGTGCTAG: -0.804 z-score
TCATCTCTCTGTGACACACTGTGCTAG: 1.26 z-score
TTCTGAGCCTGGGTGGATGGGTGCTAG: -0.727 z-score
TTAGGACCGGGTCTCGGTTAGTGCTAG: -0.214 z-score
GACGGTATCGACACTGGGGAGGTGCTA: 0.631 z-score
TTAGGTTTCCTTATCCTTTTGTGCTAG: 7.59 z-score
TTAGAACTGAGTTACGATTAGTGCTAG: -0.0893 z-score
TTAGGTCTCCGTATCCTTTAGTGCTAG: 2.45 z-score
ACTGAAATCACCCTTGGAAGTGTGCTA: 0.193 z-score
TTCGAACTGGGGACTGGATTAGTGCTA: -0.476 z-score
AATAGCTTTTCATTTTTTAACGTGCTA: 1.68 z-score
TTAGATCACAGACTGGATTAGTGCTAG: -0.0218 z-score

Sample 3
Target: Sal-like protein 4, full length isoform A (SALL4, Homo sapiens, UniProt Q9UJQ4, residues 1-1053)
Chain of UniProt Q9UJQ4 (whole entry, looked up): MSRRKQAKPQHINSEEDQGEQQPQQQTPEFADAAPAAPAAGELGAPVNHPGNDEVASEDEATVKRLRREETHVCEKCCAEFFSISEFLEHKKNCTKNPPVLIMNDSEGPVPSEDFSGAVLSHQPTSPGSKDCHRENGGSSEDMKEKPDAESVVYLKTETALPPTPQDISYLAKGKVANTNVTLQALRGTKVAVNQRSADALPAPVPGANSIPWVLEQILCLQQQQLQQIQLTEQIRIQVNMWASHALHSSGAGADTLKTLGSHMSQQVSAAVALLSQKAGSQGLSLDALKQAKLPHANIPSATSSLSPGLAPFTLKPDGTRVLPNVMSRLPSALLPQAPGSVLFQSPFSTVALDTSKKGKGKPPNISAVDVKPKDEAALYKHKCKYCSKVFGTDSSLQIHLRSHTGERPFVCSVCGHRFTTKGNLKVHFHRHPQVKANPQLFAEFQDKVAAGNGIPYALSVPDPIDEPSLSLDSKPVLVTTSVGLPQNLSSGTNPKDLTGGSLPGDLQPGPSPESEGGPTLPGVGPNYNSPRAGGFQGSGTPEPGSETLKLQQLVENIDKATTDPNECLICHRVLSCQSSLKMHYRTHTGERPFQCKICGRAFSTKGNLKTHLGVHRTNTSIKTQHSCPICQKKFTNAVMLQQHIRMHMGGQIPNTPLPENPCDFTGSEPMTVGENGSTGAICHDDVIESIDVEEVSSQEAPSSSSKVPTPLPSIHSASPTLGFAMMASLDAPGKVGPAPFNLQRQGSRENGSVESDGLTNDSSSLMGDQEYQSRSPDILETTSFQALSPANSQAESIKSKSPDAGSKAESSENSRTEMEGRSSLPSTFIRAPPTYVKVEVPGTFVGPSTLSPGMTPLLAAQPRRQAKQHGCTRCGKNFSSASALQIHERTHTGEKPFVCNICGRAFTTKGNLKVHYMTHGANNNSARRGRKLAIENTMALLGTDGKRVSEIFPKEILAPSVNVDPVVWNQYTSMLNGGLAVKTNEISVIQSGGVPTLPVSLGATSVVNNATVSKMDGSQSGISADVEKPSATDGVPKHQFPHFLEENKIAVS
Technique: universal PBM
Form: double-stranded DNA, one strand shown
Medium: in vitro
Tested at: 600 nM
Notes: 8-mer, flanks averaged, mean of replicates
Direction: higher = stronger binding
Quantity: E-score
GAGTCCGC: -0.331
GCCAGTAA: -0.0427
CTGGCGAA: -0.168
TCTTGTCA: 0.156
ATCCTTAC: 0.115
GGTGGAAA: -0.137
CGCCGTAC: -0.192
GAGATTCA: 0.000515
ACACATCC: -0.143
CACAAAAA: 0.22
GAAACGCA: -0.0744
ACAGGTTC: -0.102
AGGAAGGC: -0.208
CTTTCCAA: 0.0869
CAGAAGCA: 0.0725
AATCTTGA: 0.188
GCTACTAC: 0.171
ATGCTCAA: 0.0203

Sample 4
Target: RNA binding protein fox-1 homolog 2, RRM domain, GST-SBP tag (RBFOX2, Homo sapiens, UniProt O43251-10, residues 100-194)
Technique: RNA Bind-n-Seq
Form: RNA
Medium: in vitro
Tested at: 365 nM
Notes: natural RNA segment, single round, ends assumed
Relative to: no-protein control
Direction: higher = stronger binding
Quantity: RBNS enrichment (R)
All sequences stand within: GGGAGUUCUACAGUCCGACGAUC … UGGAAUUCUCGGGUGCCAA
Target sequence (chain): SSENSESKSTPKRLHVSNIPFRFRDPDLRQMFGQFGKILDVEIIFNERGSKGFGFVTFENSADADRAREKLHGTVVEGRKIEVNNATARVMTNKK
AGCUGGCUAGAGAUUUAUUUGUUGUAAAUGCUGUAUAGAUUUGGUUUUCCUUUCUUUACUUACCCUGGUUUGGAUUUUUUUUUUUUUUCUUUUGAAUGGAUUUAUGCUGU: 0.467
AAUGAGAGGAUAAUGAAUCUGAAUCAUAGCAGGAAUUUGCAAUAUUAAUUAUGGUUAGCUAUUUUUCUCUCAUUGAUUUUUGUGCCACUUGAAUGGAACAGAAGCAAGCC: 0.785
GGUGCUAGACAAGAAGGAAGCAGGUAAAGGGAUAGUUGCUUUGUCAUCCGUUUUUAAUUAUUUUAACUGACCCUUGACAAUCUUGUCAGCAAUAUAGGACUGUUGAACAA: 0.823
UACUCACUACUAAACUCUACCAAGAAUGGAAACAAAGAAUAUUUUCUGAAGAUUUUUUUGAAGAUUAAUUUAUACCCUAUAAAAUAAAACUUGUUAGCUUCGAUGAAGUC: 0.792
CCCCAUUCUUUGCUUGAACACAGUAUUUUCCCAAUAGCACUUUCAUUGCCAGUGUCUUUCUUUGGUGCCUUUCCUGUUCAGCAUUCUUAGCCUGUGGCAGUAAAGAGAAA: 2.36
UGAAACGGAAUCUCCACCCCAGACGUAUGAGCAUACAGCAAGACCACAGUUUCCUGGGGAGGCCUGAGUACACACAGGCCUGUGUCAGGAGGAGGGUCAUGGCUCCAAAU: 0.2
UUCUGCUGUUUUUGGCAGUCGCUUUUCUGAAUUCUCCCCUCCGGCAGCCUUCCAGAGACUGAUCCUGGAGAUUGAGUUGAUUGUCUUGGCUAGACCUGUCAUUUUAAGCU: 0.459
GCCCCUGGCCCCCCACGAGAGCUGGAGAGCCAUGUAUAUGGCUUCAAAGCCACCUACGGCAGGGACACACUCGUGAGCAUGUGUGGCCUGCAGUUCAGGUGAUACAUUUA: 0.348
UGUCAGCAGAGUCUCCAAGCCCCACGAACCCUGAGGAGUGGAGUCAUACGCGAAGGCCAUAUGGCCAUCGUGUCAGCAGAGAGAGUCUCUGUACACAGCCCCGUGAACCC: 0.225
GACCAAAGUCCCUCCAAAGUGCUCUUCCUUCUGGGUUAUUCAAGCCAAAUAUCUGGGUUUCCCCCUCUCCUCAUUCCCUAGCAAACCCCAAUUAUCUUCCAAGAUAGGAG: 0.398
GGGGUUGAAGGCUGGGGAGGAGGAUCUACUGCUGUACAGCUAAUAAAUCAUAACGGAUUAACAGGCAUUCUGAAGACUCCGUCUUUUGGGACUCCUAUUUGUCCAGGUCC: 0.248
CAAUAUUCUCUGUACAUAUUAGCGACAACAGAUUGGAUUUUAUGUUGACAUUUGUUUGGUUAUAGUGCAAUAUAUUUUGUAUGCAAGCAGUUUCAAUAAAGUUUGAUCUU: 0.411

Sample 5
Target: Histone acetyltransferase KAT6A, both winged helices, GST fusion (KAT6A, Homo sapiens, UniProt Q92794, residues 1-181)
Technique: protein binding microarray
Form: double-stranded DNA, one strand shown
Medium: in vitro
Tested at: not given
Notes: 8-mer, flanks averaged, mean of 2 arrays, mostly near background
Relative to: not given
Direction: higher = stronger binding
Quantity: E-score
Construct (chain): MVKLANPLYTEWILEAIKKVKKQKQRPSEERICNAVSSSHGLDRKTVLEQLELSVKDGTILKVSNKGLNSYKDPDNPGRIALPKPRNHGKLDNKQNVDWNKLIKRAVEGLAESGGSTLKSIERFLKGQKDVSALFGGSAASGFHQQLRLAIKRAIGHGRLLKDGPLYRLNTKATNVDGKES
CTTTGGTC: -0.166
ACGTTAAA: 0.13
GCGCGGCA: 0.358
TAGTGAGA: -0.12
GACAGGAC: -0.00404
GAGGAGCC: -0.0733
AAAATGCT: -0.144
GCGATCGC: 0.289
ACTTGTCT: -0.315
GTATCTCA: -0.0375
CGAAATGA: 0.04
GAGAACTC: -0.171
AGCCTCAG: -0.0805
GTGGTAGA: -0.0777
TCGCAAGA: 0.028
AGCGCTCA: 0.31
GGGACGAC: -0.0784
ATTCTGTC: -0.0177
GGGTTGGA: -0.149
CCCAGAGC: -0.135
ATCTTAGG: -0.184
CACTAGTA: -0.0877
CTCATAAA: 0.0967
CGTAACTA: 0.0181
CAATTATA: -0.225
